Published values of several laboratories.
Lines come from different studies, so protocols differ. Values joined by “and” are separate records of one study, mostly repeats; a detail may differ. ± marks the error that the study gave.

Compound	tested on	test	test system	conditions	how to read	measurement	result
COc1cccc2c1C(=O)c1c(O)c3c(c(O)c1C2=O)CC(O)(C(=O)CO)CC3OC1CC(NC(=O)OC2C=CCCC(C)(C(=O)NCC(=O)O)CC2)C(O)C(C)O1 (stereo not drawn)	–	–	female C57BL/6 mouse, plasma	intravenous, 43 mg/kg doxorubicin equivalents, 19 day	–	concentration	1330 ng/mL
CCCC[C@@H]1NC(=O)[C@H](Cc2ccc(O)cc2)NC(=O)[C@@H]2CCCN2C(=O)[C@H](CC(=O)O)NC(=O)[C@H](C)NC(=O)[C@H](Cc2ccccc2)NC(=O)[C@@H]2CSCCC(=O)N3CN(CN(C3)C(=O)CCSC[C@@H](C(=O)N[C@@H](C)C(N)=O)NC1=O)C(=O)CCSC[C@H](NC(C)=O)C(=O)N[C@@H](CC(C)(C)C)C(=O)N1CCC[C@H]1C(=O)N[C@@H](CCC(=O)O)C(=O)N[C@H](CCCCNC(=O)CCc1cn(CCOCCOCCOCCN(CCOCCOCCOCCC(=O)N[C@H]3CSCCC(=O)N4CN5CN(C4)C(=O)CCSC[C@H](NC(=O)[C@@H](CC(=O)O)NC(=O)[C@H](Cc4cccc6ccccc46)NC(=O)[C@@H]4CCCN4C3=O)C(=O)N[C@@H](CCSC)C(=O)N[C@@H](CCCCNC(=N)N)C(=O)N[C@@H](CC(=O)O)C(=O)N[C@@H](Cc3c[nH]c4ccccc34)C(=O)N[C@@H](CO)C(=O)N[C@@H]([C@@H](C)O)C(=O)N3CCC[C@H]3C(=O)N3C[C@H](O)C[C@H]3C(=O)N[C@@H](Cc3c[nH]c4ccccc34)C(=O)N[C@H](C(N)=O)CSCCC5=O)CCOCCOCCOCCn3cc(CCC(=O)NCCCC[C@H]4NC(=O)[C@H](CCC(=O)O)NC(=O)[C@@H]5CCCN5C(=O)[C@H](CC(C)(C)C)NC(=O)[C@@H](NC(C)=O)CSCCC(=O)N5CN6CN(C5)C(=O)CCSC[C@H](NC(=O)[C@H](Cc5ccc(O)cc5)NC(=O)[C@@H]5CCCN5C4=O)C(=O)N[C@@H](Cc4ccccc4)C(=O)N[C@@H](C)C(=O)N[C@@H](CC(=O)O)C(=O)N4CCC[C@H]4C(=O)N[C@@H](Cc4ccc(O)cc4)C(=O)N[C@@H](CCCC)C(=O)N[C@H](C(=O)N[C@@H](C)C(N)=O)CSCCC6=O)nn3)nn1)C(=O)N1CCC[C@H]1C(=O)N[C@@H](Cc1ccc(O)cc1)C(=O)N2	–	–	CD-1 mouse	–	–	CL	16 ± 5 mL/min/kg
CN1Cc2cc(Cl)ccc2-n2c(nnc2C2CCN(c3cccc([18F])n3)CC2)C1	–	–	C57BL/6 mouse male, bone	intravenous, dose not given, 5 min, added: blocking agent 10 mg/kg	–	tissue uptake	2.02 ± 1.32 %ID/g
N=C(N)NCCC[C@H](NC(=O)[C@H](CCCNC(=N)N)NC(=O)[C@H](CCCNC(=N)N)NC(=O)[C@H](CCC(N)=O)NC(=O)[C@H](CCCNC(=N)N)NC(=O)[C@H](CCCNC(=N)N)NC(=O)[C@H](CCCCN)NC(=O)[C@H](CCCCN)NC(=O)[C@H](CCCNC(=N)N)NC(=O)CNC(=O)[C@H](Cc1ccc(O)cc1)NC(=O)[C@H](Cc1ccccc1)NC(=O)[C@H](Cc1ccccc1)NC(=O)[C@H](Cc1ccccc1)NC(=O)OCC1c2ccccc2-c2ccccc21)C(=O)O	–	–	C57BL/6 mice	intraperitoneal, 5 mg/kg, 24 h	direction not given	health score	5
Cc1ccc(N(C)C2CN(C)C2)cc1C(=O)N[C@H](C)c1cc(-c2cnn(C)c2)nc2ccccc12	Vero E6	–	–	31.25 µM	–	viability	91.6% and 93.3% and 91.8%
CCN(Cc1ccccc1)C(=O)CCc1nc(CN2CCN(C(=O)Cc3ccc(OC)c(OC)c3)CC2)no1	–	rotarod test	mouse, CCI neuropathic pain model	5 mg/kg	–	time to fall	1.56 ± 0.18 min
CC(C)[C@@H]1NC(=O)CNC(=O)[C@H](CC(N)=O)NC(=O)[C@H](CCCNC(=N)N)NC(=O)[C@H](Cc2ccc(O)cc2)NC(=O)[C@H](C(C)C)NC(=O)[C@@H](NC(=O)[C@@H](NC(=O)[C@H](CC(N)=O)NC(=O)[C@H](Cc2c[nH]c3ccccc23)NC(=O)[C@H](C)NC(=O)[C@H](Cc2ccccc2)NC(=O)CNC(=O)[C@H](CCCCN)NC(=O)[C@H](Cc2ccccc2)NC(=O)[C@H](Cc2ccccc2)NC(=O)[C@H](CCCCN)NC(=O)OCC2c3ccccc3-c3ccccc32)C(C)C)CSSC[C@@H](C(=O)N[C@@H](Cc2c[nH]cn2)C(=O)N[C@@H](CCCNC(=N)N)C(=O)N[C@@H](CCCNC(=N)N)C(=O)N[C@@H](C)C(=O)N[C@@H](CC(N)=O)C(N)=O)NC(=O)[C@H](C(C)C)NC(=O)[C@H](CCCNC(=N)N)NC1=O	–	–	ICR mice, serum	intraperitoneal, 10 mg/kg, day 5	–	AST	26 ± 0.76 IU/L
CC[C@H](C)[C@H](NC(=O)[C@H](Cc1ccc(O)cc1)NC(=O)[C@@H](NC(=O)[C@H](CCCNC(=N)N)NC(=O)[C@@H](N)CC(=O)O)C(C)C)C(=O)N[C@@H](Cc1c[nH]cn1)C(=O)N1CCC[C@H]1C(=O)O	–	–	Beagle dogs, plasma	subcutaneous, 10 mg/kg/day, day 27, median	–	elimination rate constant	0.03 min⁻¹
CC(C)C[C@@H](NC(=O)[C@@H](CCCNC(=N)N)NC(=O)[C@@H](Cc1c[nH]cn1)NC(=O)[C@@H](Cc1c[nH]c2ccccc12)NC(=O)[C@@H](Cc1c[nH]cn1)NC(=O)[C@@H](Cc1ccccc1)NC(=O)[C@H](NC(=O)[C@@H](Cc1ccc(O)cc1)NC(=O)CNC(=O)CNC(=O)CCOCCOCCOCCNC(=O)CN1CCN(CC(=O)O)CCN(CC(=O)O)CC1)[C@H](C)O)C(=O)N[C@H](CC(N)=O)C(=O)N1CCC[C@@H]1C(=O)O [gallium-68 labelled]	–	–	C57BL/6 mice, male	intravenous, 1.85 MBq, 30 min	baseline: tumour over blood	tissue ratio	2.38 ± 0.53
O=C(c1cc(Cc2n[nH]c(=O)c3ccccc23)ccc1F)N1CC(CNC2CC2)C1	–	–	ICR mouse, female, plasma	intravenous, 20 mg/kg	–	Vss	5.28 L/kg
CS(=O)(=O)c1cc(Cl)cc(-c2cc(Cl)c(Cl)cc2Cl)c1Cl	–	ultrafiltration	cow milk whey	100 nM nominal in whole milk	–	dose fraction in permeate	40.4%
CCCCCCCCCCCCCCCC(=O)N[C@@H](CCC(=O)NCCOCCOCCC(=O)NCCOCCOCCC(=O)NCCCC[C@H](NC(=O)[C@H](CC(=O)O)NC(=O)[C@H](CC(C)C)NC(=O)[C@H](Cc1ccc(O)cc1)NC(=O)[C@H](CCCCN)NC(=O)[C@H](CO)NC(=O)[C@H](Cc1ccc(O)cc1)NC(=O)[C@H](CC(=O)O)NC(=O)[C@H](CO)NC(=O)[C@@H](NC(=O)[C@H](Cc1ccccc1)NC(=O)[C@@H](NC(=O)CNC(=O)[C@H](CCC(N)=O)NC(=O)[C@@H](CO)NC(=O)[C@@H](N)Cc1c[nH]cn1)[C@@H](C)O)[C@@H](C)O)C(=O)N[C@@H](CCCNC(=N)N)C(=O)N[C@@H](CCCNC(=N)N)C(=O)N[C@@H](C)C(=O)N[C@@H](CCC(N)=O)C(=O)N[C@@H](CC(=O)O)C(=O)N[C@@H](Cc1ccccc1)C(=O)N[C@H](C(=O)N[C@@H](CCC(N)=O)C(=O)N[C@@H](Cc1c[nH]c2ccccc12)C(=O)N[C@@H](CC(C)C)C(=O)N[C@@H](CC(C)C)C(=O)N[C@@H](CC(N)=O)C(=O)N[C@H](C(=O)NCC(=O)NCC(=O)N1CCC[C@H]1C(=O)N[C@@H](CO)C(=O)N[C@@H](CO)C(=O)NCC(=O)N[C@@H](C)C(=O)N1CCC[C@H]1C(=O)N1CCC[C@H]1C(=O)N1CCC[C@H]1C(=O)N[C@@H](CO)C(N)=O)[C@@H](C)O)C(C)C)C(=O)O	–	–	rhesus monkey, male	subcutaneous, 60 µg/kg once daily, 28 days	–	urea	6.56 ± 2.44 mmol/L
O=C1NC2(CC2)COc2ncc(F)cc2[C@H]2COCCN2c2ccn3ncc1c3n2	–	–	Sprague-Dawley rat, female, liver	oral, 2.5 mg/kg/day, 4 weeks dosing, end of recovery	–	organ-to-body weight ratio	2.86 ± 0.242%
Cc1cc(-c2cc([C@@H](C)NC(=O)c3cc(OCCN(C)C)ccc3C)c3ccccc3n2)n(C)n1	Vero E6	–	–	125 µM	–	viability	-1.6% and -2.2%
Cc1ccccc1-c1ccc(-c2nc(-c3ccc(CN(C)CCCC(=O)O)c([18F])c3)no2)cc1C(F)(F)F	–	–	rat, kidney	30 min	–	tracer uptake	1.19 %ID/g

A few entries again:
Compound	tested on	test	test system	conditions	how to read	measurement	result
CCCC[C@@H]1NC(=O)[C@H](Cc2ccc(O)cc2)NC(=O)[C@@H]2CCCN2C(=O)[C@H](CC(=O)O)NC(=O)[C@H](C)NC(=O)[C@H](Cc2ccccc2)NC(=O)[C@@H]2CSCCC(=O)N3CN(CN(C3)C(=O)CCSC[C@@H](C(=O)N[C@@H](C)C(N)=O)NC1=O)C(=O)CCSC[C@H](NC(C)=O)C(=O)N[C@@H](CC(C)(C)C)C(=O)N1CCC[C@H]1C(=O)N[C@@H](CCC(=O)O)C(=O)N[C@H](CCCCNC(=O)CCc1cn(CCOCCOCCOCCN(CCOCCOCCOCCC(=O)N[C@H]3CSCCC(=O)N4CN5CN(C4)C(=O)CCSC[C@H](NC(=O)[C@@H](CC(=O)O)NC(=O)[C@H](Cc4cccc6ccccc46)NC(=O)[C@@H]4CCCN4C3=O)C(=O)N[C@@H](CCSC)C(=O)N[C@@H](CCCCNC(=N)N)C(=O)N[C@@H](CC(=O)O)C(=O)N[C@@H](Cc3c[nH]c4ccccc34)C(=O)N[C@@H](CO)C(=O)N[C@@H]([C@@H](C)O)C(=O)N3CCC[C@H]3C(=O)N3C[C@H](O)C[C@H]3C(=O)N[C@@H](Cc3c[nH]c4ccccc34)C(=O)N[C@H](C(N)=O)CSCCC5=O)CCOCCOCCOCCn3cc(CCC(=O)NCCCC[C@H]4NC(=O)[C@H](CCC(=O)O)NC(=O)[C@@H]5CCCN5C(=O)[C@H](CC(C)(C)C)NC(=O)[C@@H](NC(C)=O)CSCCC(=O)N5CN6CN(C5)C(=O)CCSC[C@H](NC(=O)[C@H](Cc5ccc(O)cc5)NC(=O)[C@@H]5CCCN5C4=O)C(=O)N[C@@H](Cc4ccccc4)C(=O)N[C@@H](C)C(=O)N[C@@H](CC(=O)O)C(=O)N4CCC[C@H]4C(=O)N[C@@H](Cc4ccc(O)cc4)C(=O)N[C@@H](CCCC)C(=O)N[C@H](C(=O)N[C@@H](C)C(N)=O)CSCCC6=O)nn3)nn1)C(=O)N1CCC[C@H]1C(=O)N[C@@H](Cc1ccc(O)cc1)C(=O)N2	–	–	CD-1 mouse	–	–	CL	16 ± 5 mL/min/kg
O=C(c1cc(Cc2n[nH]c(=O)c3ccccc23)ccc1F)N1CC(CNC2CC2)C1	–	–	ICR mouse, female, plasma	intravenous, 20 mg/kg	–	Vss	5.28 L/kg
